Measured values of several laboratories.
Each line is one published result; not all experiments were run side by side. “And” joins repeats or separate records; there may be more than shown. ± gives the spread as reported.
Sequence of UniProt Q15418 (whole entry, looked up): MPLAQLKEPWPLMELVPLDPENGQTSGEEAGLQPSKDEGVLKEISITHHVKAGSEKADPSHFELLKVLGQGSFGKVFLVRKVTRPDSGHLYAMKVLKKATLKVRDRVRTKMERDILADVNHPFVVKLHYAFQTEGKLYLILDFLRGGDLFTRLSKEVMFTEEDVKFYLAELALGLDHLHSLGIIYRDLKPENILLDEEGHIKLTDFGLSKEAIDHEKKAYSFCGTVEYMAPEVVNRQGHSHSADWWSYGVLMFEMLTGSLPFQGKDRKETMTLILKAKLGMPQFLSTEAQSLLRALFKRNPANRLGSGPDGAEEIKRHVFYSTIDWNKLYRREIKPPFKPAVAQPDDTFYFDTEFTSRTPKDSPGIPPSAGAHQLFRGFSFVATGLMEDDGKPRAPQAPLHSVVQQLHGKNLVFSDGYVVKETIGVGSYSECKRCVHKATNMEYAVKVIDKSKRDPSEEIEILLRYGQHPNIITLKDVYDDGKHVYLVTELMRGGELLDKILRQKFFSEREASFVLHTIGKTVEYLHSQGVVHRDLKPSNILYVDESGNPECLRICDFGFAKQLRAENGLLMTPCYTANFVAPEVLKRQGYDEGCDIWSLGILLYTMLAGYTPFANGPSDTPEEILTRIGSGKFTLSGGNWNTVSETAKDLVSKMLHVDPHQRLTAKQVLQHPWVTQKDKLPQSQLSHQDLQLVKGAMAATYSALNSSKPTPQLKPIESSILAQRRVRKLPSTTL

SMILES	target or system	assay	system	conditions	IC50
COc1cc2c(Oc3ccc(NC(=O)C4(C(=O)Nc5ccc(F)cc5)CC4)cc3F)ccnc2cc1OCCCN1CCOCC1	NCI-H2228 (EML4-ALK)	cell growth		3 days	820 ± 110 nM
C=CC(=O)Nc1cc(Nc2nccc(-c3cn(C)c4ccccc34)n2)c(OC)cc1N(C)CCN(C)C	Ba/F3 EGFR 19Del/C797S	cell growth		72 h	869 nM
CCNCCCn1c2c(c3cc(OC)c(OC)cc3c1=O)C(=O)c1cc3c(nc1-2)OCO3	CCRF-CEM leukaemia cells	cytotoxicity, MTS		72 h	49 ± 15 nM
CCc1cc2ncc(CN3CCN(c4ccc(C(=O)NC)nc4)CC3)cc2[nH]c1=O	SK-OV-3 BRCA2 knockout	colony formation			0.778 nM
CC[C@@H]1[C@H](F)C(=O)N[C@@H]1COc1nccc2cc(C(N)=O)c(OC)cc12	Ribosomal protein S6 kinase alpha-1 (RPS6KA1, Homo sapiens, UniProt Q15418)	ATP-site binding, ActivX kinase profiling	THP-1 cell lysate	RSK1 domain 2 Lys2 probe peptide	> 5000 nM
O=C1[C@H](Cc2ccc(O)cc2)N2C(=O)CCN(C(=O)NCc3ccccc3)[C@H]2CN1Cc1cccc2ccccc12	HCT-116 LEF/TCF-bla, CTNNB1 Ser45 deletion	LEF/TCF reporter gene, inhibitor		5 h	1060 nM
N#Cc1ccc2c(CN3CCOCC3)cc(-c3ccc([C@H]4CCC(=O)N4)cc3)nc2c1	mouse aortic smooth muscle cells	cell migration, scratch wound		with: CML-HSA 10 µg/mL	2 ± 1 nM
CC(=O)C1=C(C)Nc2sc(C(=O)c3ccc(Cl)c(Cl)c3)c(N)c2C1c1cccnc1 (stereo not shown)	BV-2	nuclear intensity, high-content imaging		geometric mean	20100 nM
COc1cccc(Cn2nc(-c3ccc(CN)o3)c3ccccc32)c1	RBE	cell viability, CellTiter-Glo			5010 nM
O=C1NC(=NCc2cccs2)S/C1=C\c1ccc2ncccc2c1	786-0 renal	cell growth, MTS			7770 nM
CC(C)NCC(O)c1ccc(NS(C)(=O)=O)cc1 (stereo not shown)	hiPSC-derived cardiomyocytes	beat period change, field potential recording		30 min, coupled electrode condition	7610 nM
Clc1ccc(COc2cncc(-c3cnn(C4CCNCC4)c3)c2)c(Cl)c1	BV-2	nuclear intensity, high-content imaging		geometric mean	5180 nM
CCN(Cc1cccc(C)c1)c1ccc(CO)c(Cl)c1	RBE	cell viability, CellTiter-Glo			240 nM
Cc1nc(Nc2ncc(C(=O)Nc3c(C)cccc3Cl)s2)cc(N2CCN(CCO)CC2)n1	CFPAC	cell viability, MTT		mutant KRAS liver metastasis	3580 nM
C=Cc1c(C)c2cc3nc(c(CC(=O)O)c4[nH]c(cc5nc(cc1[nH]2)C(C)=C5CC)c(C)c4C(=O)O)[C@@H](CCC(=O)O)[C@@H]3C	4T1	cell viability, MTT		72 h, with: laser irradiation	2.65 µg/mL
Cc1c(C(=O)O)ccc2c3n(nc12)[C@@H]1[C@H](C3)N(CC2CC2)[C@@]2(C(=O)Nc3cc(Cl)ccc32)[C@H]1c1cccc(Cl)c1F	SW982	cell proliferation, alamarBlue			0.5 nM
CCCCn1cnc2ccc(-c3ccc(NC(C)=O)nc3)cc2c1=O	NSCLC cells	cell growth			> 10000 nM
CS(=O)(=O)CCNCc1ccc(-c2ccc3ncnc(Nc4ccc(OCc5cccc(F)c5)c(Cl)c4)c3c2)o1	Ba/F3 expressing HER2 S335C	cell growth, inhibitor, CellTiter-Glo			98.4 nM
O=C(CCCC[C@H]1SC[C@H]2NC(=O)N[C@H]21)NCCOCCOCCOc1cccc(Cn2nc(-c3ccc(CO)o3)c3ccccc32)c1	RBE	cell viability, CellTiter-Glo			4460 nM
CCCCN1C[C@H](O)[C@@H](O)[C@@H](O)[C@H]1CO	sample A patient fibroblasts	Gb3 level lowering, LC-MS/MS, item: Gb3 d18:1/20:0		216 h	10900 nM

SMILES	target or system	assay	system	conditions	IC50
OCc1ccc(-c2nn(Cc3cccnc3)c3cccnc23)o1	RBE	cell viability, CellTiter-Glo			4920 nM
COc1cc2c3c(n(CCCNCCO)c(=O)c2cc1OC)-c1nc2c(cc1C3=O)OCO2	CCRF-CEM leukaemia cells	cytotoxicity, MTS		72 h	57 ± 14 nM
CC(C)c1ccc(C2C(C#N)=C3N=C(N)c4ccccc4N3C3=C2C(=O)CCC3)cc1 (stereo not shown)	BV-2	cell count, high-content imaging		geometric mean	21000 nM
COc1cc2c3c(n(CCCn4ccnc4)c(=O)c2cc1OC)-c1nc2c(cc1C3=O)OCO2	CCRF-CEM leukaemia cells	cytotoxicity, MTS		72 h	117 ± 61 nM
COc1cc2nccc(Oc3ccc(NC(=O)C4(C(=O)Nc5ccc(F)cc5)CC4)cc3)c2cc1OC	NCI-H2228 (EML4-ALK)	cell growth		3 days	5190 ± 580 nM
O=C(C[C@@H](C(F)F)n1ccc(F)n1)N1CCC(O)(Cn2cnc3c(cnn3-c3ccc(F)cc3)c2=O)CC1	CAPAN-1	cell viability, SRB		5 days, mean of replicates	53.2 nM
C=CC(=O)N1CCC([C@@H]2CCNc3c(C(N)=O)c(-c4ccc(Oc5ccccc5)cc4)nn32)CC1	Rec1	calcium flux		with: anti-IgM	4.3 nM
OCc1ccc(-c2nn(Cc3ccccn3)c3ccccc23)o1	RBE	cell viability, CellTiter-Glo			290 nM
Cc1cc(Nc2ncnc3ccc(NC4=NC(C)(C)CO4)cc23)ccc1Oc1ccn2ncnc2c1	Ba/F3 expressing HER2 S335C	cell growth, inhibitor, CellTiter-Glo			11.7 nM
C#Cc1cccc(Nc2ncnc3cc(OCCOC)c(OCCOC)cc23)c1	F98 rat cells			24 h	> 100000 nM
CCN(Cc1c(F)cccc1F)c1ccc(CO)c(Cl)c1	RBE	cell viability, CellTiter-Glo			70 nM
NCCOCCCN1CCN(c2ccc(-c3cncc(Cl)c3N3CCC4(CCNC4=O)CC3)cc2)CC1	LS174T	WNT reporter gene, inhibitor, TCF/LEF luciferase			103 nM
C[C@H](Nc1ccc2c(c1)OCCn1cc(N3C(=O)OC[C@H]3C(F)F)nc1-2)C(N)=O	MFE-280	growth rate inhibition, CellTiter-Glo		120 h	16.7 nM
C=CC(=O)N1CCC[C@@H](n2nc(-c3ccc(Oc4ccccc4)cc3)c3c(N)ncnc32)C1	Rec1	calcium flux		with: anti-IgM	1.7 nM
C=CC(=O)N1C[C@@H](n2nc(C#Cc3c(F)cc4c(ncn4C4CC4)c3F)c(C(N)=O)c2NC)C[C@@H]1COC	CC-LP-1 engineered to express FGFR2-PHGDH fusion	cell viability, MTT		3 days	2.82 nM
COc1ccccc1OCC(O)CN1CCN(CC(=O)Nc2c(C)cccc2C)CC1 (stereo not shown)	hiPSC-derived cardiomyocytes	beat period change, field potential recording		30 min, decoupled electrode condition	5890 nM
COc1ccc(Cn2nc(-c3ccc(CO)o3)c3ccccc32)cc1	RBE	cell viability, CellTiter-Glo			1170 nM
Nc1ccn([C@@H]2O[C@H](CO)[C@@H](O)C2(F)F)c(=O)n1	CAPAN-1	cell viability, MTT		mutant KRAS liver metastasis	> 10000 nM
CC(c1ccccc1)n1nc(-c2ccc(CO)o2)c2ccccc21 (stereo not shown)	RBE	cell viability, CellTiter-Glo			4160 nM and ~4000 nM
Cc1nc(NC(=O)N2CCC[C@H]2C(N)=O)sc1-c1ccnc(C(C)(C)C(F)(F)F)c1	EFM-19	growth rate inhibition, CellTiter-Glo		120 h	158 nM

Some of these lines once more:
SMILES	target or system	assay	system	conditions	IC50
CCCCn1cnc2ccc(-c3ccc(NC(C)=O)nc3)cc2c1=O	NSCLC cells	cell growth			> 10000 nM
CS(=O)(=O)CCNCc1ccc(-c2ccc3ncnc(Nc4ccc(OCc5cccc(F)c5)c(Cl)c4)c3c2)o1	Ba/F3 expressing HER2 S335C	cell growth, inhibitor, CellTiter-Glo			98.4 nM
O=C(CCCC[C@H]1SC[C@H]2NC(=O)N[C@H]21)NCCOCCOCCOc1cccc(Cn2nc(-c3ccc(CO)o3)c3ccccc32)c1	RBE	cell viability, CellTiter-Glo			4460 nM
CCCCN1C[C@H](O)[C@@H](O)[C@@H](O)[C@H]1CO	sample A patient fibroblasts	Gb3 level lowering, LC-MS/MS, item: Gb3 d18:1/20:0		216 h	10900 nM
